Experimental data collected from several papers.
Parts stem from different laboratories: compare values within a part only. ± marks the error that the study gave.
Sequence of UniProt Q16539 (whole entry, looked up): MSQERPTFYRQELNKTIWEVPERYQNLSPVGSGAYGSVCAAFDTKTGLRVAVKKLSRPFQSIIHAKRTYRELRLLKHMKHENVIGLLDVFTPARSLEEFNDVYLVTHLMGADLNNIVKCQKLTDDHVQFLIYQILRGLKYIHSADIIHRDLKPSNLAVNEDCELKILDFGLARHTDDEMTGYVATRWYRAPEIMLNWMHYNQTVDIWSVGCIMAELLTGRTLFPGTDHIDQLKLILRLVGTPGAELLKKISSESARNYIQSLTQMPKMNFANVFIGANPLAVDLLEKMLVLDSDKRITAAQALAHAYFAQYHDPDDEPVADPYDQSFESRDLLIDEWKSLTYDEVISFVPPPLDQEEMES

Series 1 — organism: Candida albicans; method: broth microdilution; strain: ATCC 10231
Structure (SMILES) | MFC/MIC ratio
COc1ccc(N=Nc2c(N)nn3c(-c4ccc(C)cc4)cc(-c4ccc(OCc5ccccc5)cc4)nc23)cc1 | 2
Cc1ccc(N=Nc2c(N)nn3c(-c4ccc(Cl)cc4Cl)cc(-c4ccc(OCc5ccccc5)cc4)nc23)cc1 | 1.9
Cc1ccc(-c2cc(-c3ccc(OCc4ccccc4)cc3)nc3c(N=Nc4ccc(F)cc4)c(N)nn23)cc1 | 2
Cc1ccc(N=Nc2c(N)nn3c(-c4ccc(C)cc4)cc(-c4ccc(OCc5ccccc5)cc4)nc23)cc1 | 3.9
COc1ccc(N=Nc2c(N)nn3c(-c4ccco4)cc(-c4ccc(OCc5ccccc5)cc4)nc23)cc1 | 4

Single results of other studies
Compound | target or system | test | test system | setting | measurement | value
CCc1ccc(NC(=O)Cn2cc(COc3ccc(-c4nc5ccccc5c(=O)n4Nc4ccc([N+](=O)[O-])cc4[N+](=O)[O-])cc3OC)nn2)cc1 | mushroom tyrosinase | inhibitor, colorimetric |  | with: L-DOPA substrate | IC50 | 22.9 ± 5.65 µM
O=C(O)c1cn(Cc2ccc(C(F)(F)F)cc2)c2ccc(Oc3ccccc3)cc2c1=O | T47D |  |  | 72 h, 10% FBS | CC50 | 14.4 ± 0.07 µM
CCOc1c([C@H](C)n2nc(C)c3c(N)ncnc32)cc(Cl)c(F)c1[C@@H]1CNC(=O)C1 |  |  | patients with indolent lymphoma, plasma | oral, 30 mg, day 15, monotherapy | half-life geometric mean | 630 min
COc1cc(-c2nc3ccccc3c(=O)n2Nc2ccc([N+](=O)[O-])cc2[N+](=O)[O-])ccc1OCc1cn(CC(=O)Nc2cccc(C)c2)nn1 | mushroom tyrosinase | enzyme activity |  | 40 µM, with: L-DOPA | inhibition | 68.6 ± 10.3%
O=C(Nc1cc(-c2ccc(Cl)cc2)[nH]n1)C1CCCCC1 | Mitogen-activated protein kinase 14 (MAPK14, Homo sapiens, UniProt Q16539) | enzyme activity, Dundee kinase panel |  | 10 µM | remaining activity | 84%

Repeated from above (series 1):
Structure (SMILES) | MFC/MIC ratio
COc1ccc(N=Nc2c(N)nn3c(-c4ccc(C)cc4)cc(-c4ccc(OCc5ccccc5)cc4)nc23)cc1 | 2
